Measurements from different studies.
Compare with care: the assays were run in different laboratories. Values joined by “and” are separate records of one study, mostly repeats; a detail may differ. ± marks the error that the study gave.

Molecule | tested on | test | system | setting | scale | measurement | value
polymyxin B |  | calcein leakage | POPC/SM/CHOL liposomes | 150 µM, fusion peptide, SARS-CoV-2 |  | maximum fusion | 86 ± 4%
Cc1cc(O)c2c(c1)C(=O)c1cc(O)cc(O)c1C2=O |  | viral replication | SARS-CoV-2 trVLP system | 100 µM |  | inhibition | > 90%
ω-agatoxin IVA |  | cAMP signalling, high-content microscopy | DRG neurons, rat, spinal cord injury | dose not given, normalised 0 to 1, unit not given, with: forskolin, DAMGO 3 | baseline: DAMGO maximum, higher = stronger inhibition | PKA-RII phosphorylation inhibition | 0.739 and 0.605 and 0.77
C[n+]1ccc(-c2cc[n+](C)cc2)cc1 |  |  | abcb1 -/- FVB mice paraquat poisoning | dose not given, event flag 1 |  | survival time | 6 days and 1 days and 3 days and 5 days and 2 days and 4 days
Cc1ccc(C(C)Nc2nc(N3CCNCC3)nc3ccccc23)cc1 (stereo not drawn) | SARS-CoV-2 | cytopathic effect | USA_WA1/2020 | retest 8-point |  | maximum response | 90.8%
CNC(=O)[C@@H](NC(=O)[C@H](CC(C)C)[C@H](O)C(=O)NO)C(C)(C)C |  | prothrombin time | human platelet-poor plasma | 1 µM, with: AP venom |  | inhibition | 13.6% and 13.7% and 10%
Nc1ncnc2c([C@@H]3N[C@H](CO)[C@@H](O)[C@H]3O)c[nH]c12 | Zaire ebolavirus | viral replication, inhibitor | human Macrophage | 1.6 µM |  | inhibition | 1.2%
O=C(/C=C/c1ccc(O)cc1)c1ccc(O)cc1O |  | viral replication | SARS-CoV-2 trVLP system | 100 µM |  | inhibition | > 90%
CCc1c(C(=O)C(N)=O)c2c(OCC(=O)O)cccc2n1Cc1ccccc1 |  |  | PB population, mouse | intravenous, 60 µg/mouse, 24 h, preincubated with venom, with: Daboia russelii venom 2.5 x LD50 |  | survival | 0%
C=CCc1ccc(O)c(-c2cc(CC=C)ccc2O)c1 |  | viral replication | SARS-CoV-2 trVLP system | 100 µM |  | inhibition | > 90%
CC[C@H](C)[C@H](NC(=O)[C@H](CC(C)C)NC(=O)[C@H](Cc1c[nH]c2ccccc12)NC(=O)[C@H](CCC(N)=O)NC(=O)[C@@H](NC(=O)[C@H](Cc1ccccc1)NC(=O)[C@H](C)NC(=O)[C@H](CCCCNC(=O)COCCOCCNC(=O)COCCOCCNC(=O)CC[C@H](NC(=O)CCCCCCCCCCCCCCCCCCC(=O)O)C(=O)O)NC(=O)[C@H](CCC(N)=O)NC(=O)[C@H](C)NC(=O)[C@@H](NC(=O)[C@H](CCCCN)NC(=O)[C@H](CC(=O)O)NC(=O)[C@H](CC(C)C)NC(=O)C(C)(C)NC(=O)[C@@H](NC(=O)[C@H](CO)NC(=O)[C@H](Cc1ccc(O)cc1)NC(=O)[C@H](CC(=O)O)NC(=O)[C@H](CO)NC(=O)[C@@H](NC(=O)[C@H](Cc1ccccc1)NC(=O)[C@@H](NC(=O)CNC(=O)[C@H](CCC(=O)O)NC(=O)C(C)(C)NC(=O)[C@@H](N)Cc1ccc(O)cc1)[C@@H](C)O)[C@@H](C)O)[C@@H](C)CC)[C@@H](C)CC)C(C)C)C(=O)N[C@@H](C)C(=O)NCC(=O)NCC(=O)N1CCC[C@H]1C(=O)N[C@@H](CO)C(=O)N[C@@H](CO)C(=O)NCC(=O)N[C@@H](C)C(=O)N1CCC[C@H]1C(=O)N1CCC[C@H]1C(=O)N1CCC[C@H]1C(=O)N[C@@H](CO)C(N)=O |  |  | patients with type 2 diabetes, serum | 5/5/10/10 mg escalating, day 29 |  | total ALT | 33 ± 24.4 U/L
mycosubtilin |  | calcein leakage | POPC/SM/CHOL liposomes | 150 µM, fusion peptide, SARS-CoV-2 |  | leakage time constant | 16 ± 4 min
O=c1ccn([C@@H]2O[C@](F)(CO)[C@@H](O)[C@H]2O)c(=O)[nH]1 |  |  | Lassa virus Josiah strain, strain 13/N guinea pig |  |  | efficacious dose | < 0.5 mg/kg
CCc1ccccc1N1CC(c2nc3ccccc3n2CCCCOc2ccccc2OC)CC1=O (stereo not drawn) | SARS-CoV-2 | cytopathic effect | USA_WA1/2020 | round 1, 5-point |  | maximum response | 35.5%
Cn1cnc(Cn2c(=O)[nH]/c(=N\c3cc4cn(C)nc4cc3Cl)n(Cc3cc(F)c(F)cc3F)c2=O)n1 |  |  | human, mild renal impairment, plasma | oral, 375 mg single dose |  | terminal half-life | 52.1 h

For quick reference, copied from above:
Molecule | tested on | test | system | setting | scale | measurement | value
Nc1ncnc2c([C@@H]3N[C@H](CO)[C@@H](O)[C@H]3O)c[nH]c12 | Zaire ebolavirus | viral replication, inhibitor | human Macrophage | 1.6 µM |  | inhibition | 1.2%
O=C(/C=C/c1ccc(O)cc1)c1ccc(O)cc1O |  | viral replication | SARS-CoV-2 trVLP system | 100 µM |  | inhibition | > 90%
